Experimental data from different studies.
Lines come from different studies, so protocols differ. Values joined by “and” are separate records of one study, mostly repeats; a detail may differ. ± gives the spread as reported. Values after ≈ are worked out from the molar mass of the structure shown.
TDP1: Tyrosyl-DNA phosphodiesterase 1 (TDP1, Homo sapiens, UniProt Q9NUW8)
UniProt Q9NUW8, sequence (whole entry, looked up): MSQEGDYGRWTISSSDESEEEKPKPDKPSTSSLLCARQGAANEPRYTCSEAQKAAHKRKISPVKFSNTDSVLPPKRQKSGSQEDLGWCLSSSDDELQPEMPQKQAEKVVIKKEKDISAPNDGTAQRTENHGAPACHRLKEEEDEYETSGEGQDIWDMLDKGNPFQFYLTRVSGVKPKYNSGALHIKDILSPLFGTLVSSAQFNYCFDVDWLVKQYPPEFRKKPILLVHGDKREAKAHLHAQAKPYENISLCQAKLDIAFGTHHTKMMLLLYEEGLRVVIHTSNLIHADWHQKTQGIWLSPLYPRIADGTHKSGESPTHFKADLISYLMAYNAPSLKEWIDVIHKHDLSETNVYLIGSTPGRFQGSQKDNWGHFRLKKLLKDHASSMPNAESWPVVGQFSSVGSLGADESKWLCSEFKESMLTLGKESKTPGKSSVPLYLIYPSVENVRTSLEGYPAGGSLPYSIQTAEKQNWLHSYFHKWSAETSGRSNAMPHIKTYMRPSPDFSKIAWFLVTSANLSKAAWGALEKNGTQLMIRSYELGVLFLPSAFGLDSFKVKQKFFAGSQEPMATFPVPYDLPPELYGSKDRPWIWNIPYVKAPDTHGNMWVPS

SMILES	tested on	assay	test system	conditions	scale	measurement	value
O=C(O)c1ccc(Nc2c(-c3ccc(CON=Cc4cc5ccccc5s4)cc3)nc3cc(-c4ccccc4)ccn23)cc1	TDP1	enzyme activity, inhibitor		100 µM, unpurified compound		inhibition	35.5%
COc1cc2ncnc(Oc3ccc(Nc4nccc5[nH]cc(-c6ccc(F)cc6)c(=O)c45)cc3F)c2cc1OC			male beagle dog, plasma	oral, 4 mg/kg		Cmax	5670 ng/mL
CCCCN1C(=O)c2cccc3c(NCCN4CCOCC4)ccc(c23)C1=O			chloroform			fluorescence lifetime	8.1 ns
C=CC(=O)N1CCCC(n2c(=O)c3ncccc3n(Cc3ccc(Oc4ccccc4)cc3)c2=O)C1 (stereo not drawn)		metabolic stability	male Sprague-Dawley rat, hepatocytes	1 µM, 30 min		compound remaining	1.2%
CCCCN1C(=O)c2cccc3c(NCCCN4CCOCC4)ccc(c23)C1=O			ethyl acetate			emission maximum	509 nm
CC[C@H](C)[C@H](NC(=O)[C@H](CC(=O)O)NC(C)=O)C(=O)N[C@H](C(=O)N[C@H](C(=O)N[C@@H](CCCNC(=N)N)C(=O)N[C@@H](Cc1ccc(O)cc1)C(=O)N[C@@H](CC(N)=O)C(=O)NCC(=O)N[C@@H](CCCCN)C(=O)N[C@H](C(=O)N[C@@H](Cc1c[nH]c2ccccc12)C(=O)N[C@@H](Cc1c[nH]c2ccccc12)C(=O)N[C@@H](CCCNC(=N)N)C(=O)O)C(C)C)[C@@H](C)O)[C@@H](C)O		circular dichroism	free peptide in solution	concentration not given, 25 °C, no insulin present		β-strand content	50.1%
Cc1[nH]c(=O)c(CNC(=O)c2cc(Cl)c3c(c2C)O[C@@](C)([C@H]2CC[C@H](N(C)C)CC2)O3)c(C)c1O			healthy men, urine	oral, 200 mg [14C]-valemetostat, 0 to 48 h	relative to: dose	excretion	0.79%
COc1ccc(Nc2nc(Nc3ccc(OCCOCCOCC[18F])cc3)ncc2Br)cc1			ICR mice, S180 tumour-bearing, brain	intravenous, 370 kBq, 120 min		tissue uptake	2.57 ± 0.07 %ID/g
CC(C)C[C@@H](NC(=O)[C@H](NC(=O)[C@H]1CCCN1)[C@H](C)O)C(=O)N[C@H](Cc1c[nH]cn1)C(=O)N[C@@H](C(=O)N[C@H](Cc1c[nH]cn1)C(=O)N[C@H](CC(N)=O)C(=O)N[C@H](CCCNC(=N)N)C(=O)N[C@H](CCCNC(=N)N)C(=O)N[C@H](CCCNC(=N)N)C(=O)N[C@H](CCCNC(=N)N)C(=O)N[C@H](CCCNC(=N)N)C(N)=O)[C@H](C)O			Beagle dog, blood	oral, 3 mg/kg daily, 3 months		triglycerides	3.2 ± 1.8 mmol/L
C=C(NC(=O)c1csc(-c2nc3c(cc2O)-c2nc(cs2)C(=O)NC(C(C)O)C(=O)NC(=C(C)OC)c2nc(cs2)C(=O)NC2c4nc(cs4)C(=O)NC(COC(=O)c4c5c6c(cccc6n4O)COC(=O)C(OC4CC(C)(O)C(N(C)C)C(C)O4)C2OC5)c2nc-3cs2)n1)C(N)=O (stereo not drawn)			cynomolgus monkey, plasma	intravenous, 9 mg/kg, single dose, infusion		AUC(0-inf)	45100 ng·h/mL
Cc1nc(N)nc2c1C(=O)N[C@@H](c1ccc(F)cc1-c1cccc(O[11CH3])n1)C2		ex vivo biodistribution	mice, MDA-MB-231 subcutaneous xenograft, blood	60 min post-injection, baseline, vehicle pre-treatment		SUV	0.6 ± 0.01
CN(O)C(=O)CCC(=O)NCCCN(CCCCN(CCCNC(=O)CCC(=O)N(C)O)C(=O)CCC(=O)N(C)O)C(=O)CCC(=O)N(C)O.[89Zr]			mouse plasma	5 d, 37 °C		intact complex	100%
CC[C@H](C)[C@@H]1NC(=O)[C@H](Cc2ccc(O)cc2)NC(=O)CCCSC[C@@H](C(=O)N(CC(=O)N[C@@H](CC(C)C)C(=O)NCC(N)=O)Cc2ccc(F)cc2)NC(=O)[C@H](CC(N)=O)NC(=O)[C@H](CCC(N)=O)NC1=O			human	intranasal, 5 µg single dose		adverse drug reactions	50%
CC(C)(O)c1ncc([S@](N)(=O)=NC(=O)Nc2c3c(cc4c2CCC4)CCC3)s1		refers to: general and administration-site disorders	healthy human volunteers	oral, 100 mg once daily, 14 days, spray-dried dispersion		subjects with adverse events	50%
COCC1CN(C2CCN(c3cc(OC)c(Nc4ncc(Br)c(Nc5ccc6c(c5P(C)(C)=O)OCCO6)n4)cc3C)CC2)C1			EGFR-mutant NSCLC patients	oral, 10 mg once daily		patients with adverse events	100%
C/C(N)=N/C(=N\S(=O)(=O)c1ccc(C(F)(F)F)cc1)N1C[C@H](c2ccccc2)C(c2ccc(Cl)cc2)=N1			beagle dog, plasma	oral, 12 mg/kg		Cmax	1520 ng/mL
N#C[C@@H]1CC(F)(F)CN1C(=O)CNC(=O)c1ccnc2c(NC(=O)[C@H](CCCCNC(=O)CCOCCOCCOCCOCCOCCOCCNC(=O)CN3CCN(CC(=O)[O-])CCN(CC(=O)[O-])CCN(CC(=O)[O-])CC3)NC(=O)CCCc3ccc(I)cc3)cccc12.[177Lu+3]			mouse, U-87 MG tumour xenograft, spleen	24 h		tissue uptake	3.1 ± 1.04 %ID/g
COc1ccnc(C(=O)N[C@H]2COC(=O)[C@H](Cc3ccccc3)[C@@H](OC(=O)C(C)C)[C@H](C)OC2=O)c1O			UK acid sand A1, OC 0.8%	pH 3.9		Freundlich KF	22.5 mL/g
CCCCN1C(=O)c2cccc3c(NCCCCCCN4CCOCC4)ccc(c23)C1=O			DMF			emission maximum	524 nm
O=C(Nc1cnccc1-c1ccc([18F])cc1)c1ccnc(NC(=O)C2CC2)c1			FVB/NJ mice (both sexes), urine	intravenous, dose not given, 120 min		SUV	21.1
Cn1cc(C=NOCc2ccc(-c3nc4cc(-c5ccccc5)ccn4c3Nc3ccc(C(=O)O)cc3)cc2)c(-c2ccc3c(c2)OCCCO3)n1 (mixture of isomers)	TDP1	enzyme activity, inhibitor		100 µM, unpurified compound		inhibition	81.2%
COc1cccc2c(N3CCC(CCP(=O)(O)O)CC3)ncnc12			female C57BL/6 mouse, brain	subcutaneous, 50 mg/kg		half-life	138 min
O=C(Nc1cnccc1-c1ccc([18F])nc1)c1ccnc(NC(=O)C2CC2)c1			FVB/NJ mice, both sexes, brain	intravenous, 40 min, median, no P-gp inhibitor		SUV	0.045

SMILES	tested on	assay	test system	conditions	scale	measurement	value
CN(C(=O)c1ccnc(N2Cc3cn(Cc4ccc(F)cc4)nc3C2)n1)C1CCCCC1		metabolic stability	rat, liver microsomes			half-life	< 1 min
COc1cccc(OC)c1-c1cc(C(=O)NC2(C(=O)O)C3CC4CC(C3)CC2C4)nn1-c1ccc(C(=O)N(C)CCCN(C)CCCN(C)C(=O)[C@H](CCCCNC(=O)[C@H](CC(C)C)NC(=O)C2OC2C(=O)O)NC(=O)CN2CCN(CC(=O)[O-])CCN(CC(=O)[O-])CCN(CC(=O)[O-])CC2)cc1C(C)C.[177Lu+3] (mixture of isomers)			mouse HT-29 xenograft	72 h, biodistribution	relative to: tumour over pancreas	tumour-to-pancreas ratio	36.6
CC[C@H](C)[C@@H]1NC(=O)[C@H](Cc2ccc(O)cc2)NC(=O)CSC[C@@H](C(N)=O)NC(=O)[C@H](CC(N)=O)NC(=O)[C@H](Cc2c[nH]cn2)NC(=O)[C@H](Cc2ccc(O)cc2)NC(=O)[C@H](CC(=O)O)NC(=O)[C@H](Cc2ccc(F)c(F)c2)NC(=O)[C@H](CC(C)C)NC(=O)[C@H](CCCNC(=N)N)NC1=O		PAMPA		200 µM, 5 h, pH 7.4		membrane retention	-0.02%
CC(C)(c1cc(Br)c(O)c(Br)c1)c1cc(Br)c(O)c(Br)c1			whole cow milk	200 nM nominal		dose fraction in milk fat	46.2%
Cc1cnc2nc1Nc1cccc(c1)COC/C=C/COCc1cc(ccc1OCCN1CCOCC1)N2			BALB/c mice, rhEPO-induced polycythemia	100 mg/kg, day 3		body weight	18.2 g and 19.2 g and 19.9 g and 19.4 g
O=C1NC(=O)/C(=C/c2ccc3ncnc(N4CCC(F)CC4)c3n2)S1			NSG mice	dose not given, day 4		body weight	18.5 g and 20.8 g and 21.6 g and 22.5 g
CCCCN1C(=O)c2cccc3c(NCCCCCCCCCCN4CCOCC4)ccc(c23)C1=O			DMF			emission maximum	525 nm
O=C(NS(=O)(=O)c1cccs1)c1cc2ccccc2n1Cc1ccc(Br)c2ccccc12			KM mouse, chronic hyperuricaemia model	dose not given, day 26		body weight	37.6 g and 40.5 g and 38.9 g and 37.9 g and 35.6 g and 37.1 g
COc1cccc(OC)c1-c1cc(C(=O)NC2(C(=O)O)C3CC4CC(C3)CC2C4)nn1-c1ccc(C(=O)N(C)CCOCCN(C)C(=O)[C@H](CCCCNC(=O)[C@H](CC(C)C)NC(=O)C2OC2C(=O)O)NC(=O)CN2CCN(CC(=O)[O-])CCN(CC(=O)[O-])CCN(CC(=O)[O-])CC2)cc1C(C)C.[177Lu+3] (mixture of isomers)			mouse HT-29 xenograft	72 h, biodistribution	relative to: tumour over spleen	tumour-to-spleen ratio	3.32
C=C[C@]1(C)C[C@@H](OC(=O)CSc2ccc(NC(=O)c3ccco3)cc2)[C@]2(C)[C@H](C)CC[C@]3(CCC(=O)[C@H]32)[C@@H](C)[C@@H]1O			M. gallisepticum-infected chickens, plasma	intramuscular, 80 mg/kg single dose		apparent clearance (CL/F)	71.8 mL/min/kg and 71.9 mL/min/kg
CCC1CNC(CC)CN(C(C(=O)[O-])c2ccc(C(=O)[O-])cc2)C(CC)CN(CC(=O)[O-])C(CC)CN1.[Mn+2] (stereo not drawn)		ICP-MS	BALB/c mouse, lung	intravenous, 0.05 mmol/kg, 30 min, without anaesthesia		Mn content	0.6 ± 0.07 µg/g
O=S1(=O)CC2CCCCC2CS1 (stereo not drawn)		phase solubility, NMR	water	25 °C, with: hydroxypropyl-β-cyclodextrin 631 mM		solubility	73 mM (≈ 15.1 mg/mL)
CCCCN1C(=O)c2cccc3c(NCCCCCCCCN4CCOCC4)ccc(c23)C1=O			dioxane			emission maximum	516 nm
Cc1nn(-c2nc3c(F)cc(F)cc3s2)c(O)c1C(c1ccc(C(F)(F)F)cc1)c1c(C)nn(-c2nc3c(F)cc(F)cc3s2)c1O			ICR mouse	intravenous, 5 mg/kg, 0.75 h		plasma concentration	9720 ng/mL and 8680 ng/mL and 7340 ng/mL
COc1cccc(OC)c1-c1cc(C(=O)NC2(C(=O)O)C3CC4CC(C3)CC2C4)nn1-c1ccc(C(=O)N(C)CCCN(C)C(=O)[C@H](CCCCNC(=O)[C@H](CC(C)C)NC(=O)C2OC2C(=O)O)NC(=O)CN2CCN(CC(=O)[O-])CCN(CC(=O)[O-])CCN(CC(=O)[O-])CC2)cc1C(C)C.[177Lu+3] (mixture of isomers)			mouse HT-29 xenograft	4 h, biodistribution	relative to: tumour over spleen	tumour-to-spleen ratio	9.05
O=C(O)CCCOc1ccc([18F])cc1-c1cc(-c2ccccc2C(F)(F)F)n(-c2ccccc2)n1		OLINDA/EXM from mouse data	human adults, ovaries			absorbed dose	11.6 µGy/MBq
CCCCN1C(=O)c2cccc3c(NCCCCN4CCOCC4)ccc(c23)C1=O			DMSO			fluorescence lifetime	10.4 ns
CN(C)C(=O)c1cccc(N2Cc3cn(Cc4cc(F)cc(F)c4)nc3C2)c1		metabolic stability	rat, liver microsomes			half-life	48 min
COC(=O)C(C)n1nc(Cn2cc3cc(OCC[18F])c(Cl)cc3n2)c2ccccc2c1=O (racemic)			rat, plasma	150 min		parent compound	0%
O=C(c1ccccc1)N1C(c2ccc(OCC3CCN(CCCF)C3)cc2)c2ccc(O)cc2CC12CC2 (stereo not drawn)			C57BL/6J mouse, plasma	oral, 25 mg/kg		Cmax	674 ng/mL
C=CC(=O)Nc1cc(Nc2nccc(-c3c[nH]c4ccccc34)n2)c(OC)cc1N(C)CCN(C)C		storage stability	human plasma	10 d, on ice, HQC level		recovery	61.7%
[123I]c1ccc2nc(-c3ccc(-n4ccnn4)nc3)cn2c1			male Wistar rat, lung	intravenous, 4 MBq, 5 min		tracer uptake	1.03 %ID/g
